Published values pooled from the literature.
Each line is one published result; not all experiments were run side by side. Numbers after ± are the reported error.

Under “AUEC(0-4 h) diastolic BP difference”, `CCCOc1ccc(NC(=O)CN2CCN(C)CC2)cc1-c1nc(CC)c(CC)c(=O)[nH]1` is recorded as -8.25 h·mmHg (healthy Chinese men; 10 mg, together with: alcohol 0.5 g/kg; reference: compound with placebo alcohol).
Under “subjects with adverse event”, `CC(C)(C(=O)N1CCOc2c(C#N)cncc2C1)C(F)F` is recorded as 25% (item: nervous system disorders; human; oral, 20 mg twice daily, 14 days, multiple ascending dose).
The thermodynamic solubility of `O=C1c2ccccc2C(=O)N1CCCc1nc(-c2cccc([N+](=O)[O-])c2)no1` is reported as under 5.36 µM (aqueous buffer; pH 7.4).
`C1=C/COCc2cc(ccc2OCCN2CCCC2)Nc2nccc(n2)-c2cccc(c2)COC/1` — result for “stability relative error”: 3.34% (rat plasma; 2 ng/mL, 4 h, room temperature; reference: nominal concentration).
`Nc1ncc(-c2ccncc2)nc1Nc1ccc2[nH]ccc2c1` — result for “unchanged dose excreted in urine”: under 0.01% (mouse C57BL male, urine; intravenous, 5 mg/kg).
For `NS(=O)(=O)c1ccc(CNc2nc(Nc3cccc(CN4CCOCC4)c3)ncc2Br)cc1`, PAMPA permeability read “not detected” (PAMPA; PBS; 5 h, pH 7.4).
`O=C(Nc1cnccc1Cl)N1CCN(Cc2ccc3c(c2)OC(F)(F)O3)CC1` — result for “back pain incidence”: 33.3% (multiple ascending dose; young men; 25 mg, treatment-emergent adverse events).
`CCOc1c([C@H](C)n2nc(C)c3c(N)ncnc32)cc(Cl)c(F)c1[C@@H]1CNC(=O)C1`: “Cmax geometric mean” 749 nM (patients, monotherapy; oral, 10 mg once daily, cycle 1 day 15).
For `O=c1[nH]c(=O)n([C@@H]2O[C@H](CO)[C@@H](O)[C@@H]2F)cc1CCCCC[18F]`, “time to peak radioactivity” read about 8 min (PET; mice, RG2 tumour xenograft, tumour; dose not given).
`COc1cc(Nc2ncc3c(n2)-c2ccc(Cl)cc2C(c2c(F)cccc2OC)=NC3)ccc1C(=O)O`: “patients with adverse event” 4% (item: acneiform rash, grade 3; cancer patients, phase 1/2; oral, dose not given, together with: pembrolizumab).
For `O=C(Nc1nc2cccc(-c3ccc(CN4CCS(=O)(=O)CC4)cc3)n2n1)C1CC1`, “treatment-emergent adverse events” read 25% (item: gastrointestinal disorders; human rheumatoid arthritis patients; oral, 200 mg once daily, 4 weeks, regardless of relatedness).
`Cn1cc(Nc2nccc(-c3ccc4c(c3)CN(C3COC3)CC[C@H]4NC(=O)c3cn(C(C)(C)C)nn3)n2)cn1`: “B cell count change” 48.7% (human, whole blood; 300 mg twice daily, day 7; reference: pre-dose baseline).
`Cc1cc(Nc2ncnc3ccc(NC4=NC(C)(C)CO4)cc23)ccc1Oc1ccn2ncnc2c1` gave a %AUCextrap, median of 0.88% (healthy volunteers, plasma; oral, 300 mg, day 1, single dose alone).
`CCc1ccc(-c2ccc(-c3cc(F)c(F)c(F)c3)c(F)c2)cc1`: “median fetal accumulation” 0.562 ng/g (rat, fetus; 5000 ng/mL in perfusate, high dose, mixture of 21 LCMs).
For `CNCCOC12CC3(C)CC(C)(CC(Cn4ncc(-c5ccc(N6CCc7cccc(C(=O)Nc8nc9ccccc9s8)c7C6)nc5C(=O)O)c4C)(C3)C1)C2`, “heart rate change” read -5% (beagle dog, male, anaesthetised; intravenous bolus, 0.03 mg/kg, 75 min; reference: baseline).
For `N#CCC1CCN(c2nc(Nc3ccc(N4CCC(O)CC4)cc3)c3c(=O)[nH]ncc3n2)CC1`, the t1/2 was 11.2 h (human, plasma; oral, 80 mg once daily, day 1).
`O=C(CCCCCCC(=O)Nc1ccc(CC[18F])cc1)NO` gave a tissue uptake of 4.9 ± 0.6 %ID/g (athymic nu/nu male mice, LNCaP xenograft, liver; intravenous, 1 h).
Under “subjects with adverse event”, `CC(C)c1nc(N(C)S(C)(=O)=O)nc(-c2ccc(F)cc2)c1/C=C/[C@@H](O)C[C@@H](O)CC(=O)O` is recorded as 0% (item: dizziness; healthy men; oral, dose not given, 8 days, treatment-emergent, crossover trial).
For `C[C@@H](Nc1cc(F)cc(F)c1)c1cc(C(=O)N(C)C)cc2c(=O)cc(N3CCOCC3)oc12`, “t1/2 geometric mean” read 3.52 h (human, plasma; oral, 240 mg, day 1 single dose).
The nausea incidence of `Cn1cc(Nc2nc(N)nc(-c3cccc(-n4ccc5cc(C6CC6)cc(F)c5c4=O)c3CO)n2)cn1` is reported as 0% (healthy humans, fed; oral tablet, 150 mg twice daily (multiple dose), 14 (unit not given); reference: subjects).

Excerpt of the above:
For `C[C@@H](Nc1cc(F)cc(F)c1)c1cc(C(=O)N(C)C)cc2c(=O)cc(N3CCOCC3)oc12`, “t1/2 geometric mean” read 3.52 h (human, plasma; oral, 240 mg, day 1 single dose).
Under “subjects with adverse event”, `CC(C)(C(=O)N1CCOc2c(C#N)cncc2C1)C(F)F` is recorded as 25% (item: nervous system disorders; human; oral, 20 mg twice daily, 14 days, multiple ascending dose).
For `O=c1[nH]c(=O)n([C@@H]2O[C@H](CO)[C@@H](O)[C@@H]2F)cc1CCCCC[18F]`, “time to peak radioactivity” read about 8 min (PET; mice, RG2 tumour xenograft, tumour; dose not given).
